Assay results pooled from the literature.
Compare with care: the assays were run in different laboratories.
Target: Serine/threonine-protein kinase ULK1 (ULK1, Homo sapiens, UniProt O75385)
Residues used in one study (O75385 1-1050): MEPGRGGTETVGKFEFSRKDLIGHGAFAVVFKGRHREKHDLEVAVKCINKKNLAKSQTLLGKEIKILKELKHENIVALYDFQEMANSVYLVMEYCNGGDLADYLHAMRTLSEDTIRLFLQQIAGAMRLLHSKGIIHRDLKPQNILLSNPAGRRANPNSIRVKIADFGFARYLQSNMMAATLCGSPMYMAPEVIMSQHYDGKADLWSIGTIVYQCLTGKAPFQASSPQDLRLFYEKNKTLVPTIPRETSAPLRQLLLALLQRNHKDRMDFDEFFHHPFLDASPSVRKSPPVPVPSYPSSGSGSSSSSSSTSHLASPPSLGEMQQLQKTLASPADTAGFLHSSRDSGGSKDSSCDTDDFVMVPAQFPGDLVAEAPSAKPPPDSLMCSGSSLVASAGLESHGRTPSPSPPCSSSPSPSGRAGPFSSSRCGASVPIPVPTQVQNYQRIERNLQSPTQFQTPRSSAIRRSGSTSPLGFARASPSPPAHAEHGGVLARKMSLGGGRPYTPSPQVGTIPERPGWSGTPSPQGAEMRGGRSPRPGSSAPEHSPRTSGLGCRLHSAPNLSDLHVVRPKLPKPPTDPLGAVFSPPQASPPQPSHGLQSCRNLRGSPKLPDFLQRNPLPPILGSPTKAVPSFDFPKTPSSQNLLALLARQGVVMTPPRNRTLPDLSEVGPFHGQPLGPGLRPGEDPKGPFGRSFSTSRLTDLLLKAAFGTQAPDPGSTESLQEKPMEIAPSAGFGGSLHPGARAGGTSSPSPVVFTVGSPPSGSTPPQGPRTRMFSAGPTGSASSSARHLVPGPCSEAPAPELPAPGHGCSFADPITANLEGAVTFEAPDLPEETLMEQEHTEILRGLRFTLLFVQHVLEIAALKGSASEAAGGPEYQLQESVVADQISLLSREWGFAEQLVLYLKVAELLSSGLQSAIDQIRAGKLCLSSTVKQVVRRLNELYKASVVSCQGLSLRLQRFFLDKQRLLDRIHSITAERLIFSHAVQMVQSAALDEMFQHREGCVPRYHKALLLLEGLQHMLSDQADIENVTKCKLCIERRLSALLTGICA

| Structure (SMILES) | test | system | setting | how to read | quantity | value |
| --- | --- | --- | --- | --- | --- | --- |
| COc1ccc(C(=O)N2CCN(CC(OCc3ccc4ccccc4c3)c3ccc(Cl)cc3Cl)CC2)cc1 (stereo not shown) | enzyme activity, inhibitor, ADP detection | – | 0.1 µM | – | activity vs control | 113% |
| CNC1C[S+]2CC[S+]3CC[S+](C1)[Ru-4]321([N]=C=S)[n]2c3ccc(OC)cc3c3c4c(c5cc(F)c[n+]1c5c32)C(=O)NC4=O (stereo not shown) | KinomeScan | – | 0.1 µM | relative to: untreated | remaining binding | 71% |
| CN1CCN(Cc2ccc(-c3ccc(CO[C@H]4CCC[C@@H]4NC(=O)c4cc(-c5cnn(C)c5)cnc4N)cc3)cc2)CC1 | enzyme activity, inhibitor | – | 0.1 µM | – | inhibition | 7% |
| O=C(c1ccc(Cl)cc1Cl)N1CCN(CC(OCc2ccc3ccccc3c2)c2ccc(Cl)cc2Cl)CC1 (stereo not shown) | enzyme activity, inhibitor, ADP detection | – | 0.1 µM | – | activity vs control | 115% |
| C=CC(=O)N1CCc2ccc(-n3c(=O)ccc4cnc5ccc(-c6cnn(C)c6)cc5c43)cc21 | KINOMEscan | – | 1 µM | relative to: DMSO control | remaining binding | 100% |
| Cc1cnc2nc1Nc1cccc(c1)COC/C=C/COCc1cc(ccc1OCCN1CCOCC1)N2 | cell-free assay | – | 0.1 µM | – | remaining signal | 96% |
| Cc1nc2c(F)cc(-c3nc(Nc4ccc(CNC(=O)CCCCCCC(=O)NO)cc4)ncc3F)cc2n1C(C)C | enzyme activity, inhibitor | – | 1 µM | – | inhibition | 34% |
| Clc1ccc(C(Cn2ccnc2)OCc2ccc3ccccc3c2)c(Cl)c1 (stereo not shown) | enzyme activity, inhibitor, ADP detection | – | 0.1 µM | – | activity vs control | 102% |
| C=CC(=O)N1CCCC(n2c(=O)c3ncccc3n(Cc3ccc(Oc4ccccc4)cc3)c2=O)C1 (stereo not shown) | cell-free assay, competition with immobilised ligand | – | 1 µM | – | remaining binding | 45% |
| NC(=O)[C@@H](O)C[C@H]1CCc2sc3ncnc(O[C@H]4CC[C@H](N5CCOCC5)CC4)c3c21 | enzyme activity, inhibitor | – | 10 µM | – | inhibition | -11% |
| CN1CC[C@@H](COc2cnc(C#N)cc2-c2ccn3nc(NC(=O)C4CC4)cc3c2)C1 | enzyme activity, inhibitor | – | 1 µM | – | inhibition | 2% |
| CCN1CCN(Cc2ccc(NC(=O)c3ccc(C)c(NC(=O)c4cncc(-c5cnn(C)c5)c4)c3)cc2C(F)(F)F)CC1 | binding, competition with immobilised ligand | – | 1 µM | – | remaining binding | 100% |
| CCCCN(CCCC)CC(=O)N1CCN(CC(OCc2ccc3ccccc3c2)c2ccc(Cl)cc2Cl)CC1 (stereo not shown) | enzyme activity, inhibitor, ADP detection | – | 0.1 µM | – | activity vs control | 115% |
| C[C@H]1CN(C(=O)c2cn(-c3ccnc(N)n3)c3cc(C#CC4(O)CCCCC4)ccc23)CCN1 | cell-free assay, TR-FRET | – | 1 µM | – | inhibition | -2% |
| Cc1ccc(C(=O)Nc2ccc(CN3CCN(C)CC3)c(C(F)(F)F)c2)cc1C#Cc1cnc2cccnn12 | target engagement, NanoBRET | human cells | – | – | upper asymptote | 3.9 |
| CN1CCN(CC(=O)N2CCN(CC(OCc3ccc4ccccc4c3)c3ccc(Cl)cc3Cl)CC2)CC1 (stereo not shown) | enzyme activity, inhibitor, ADP detection | – | 0.1 µM | – | activity vs control | 163% |
| COc1cc(Nc2nccc(-c3cnn4nc(OC)ccc34)n2)cc(C(F)(F)F)c1 | binding, competition with immobilised ligand | – | 1 µM | – | remaining binding | 89% |
| Clc1ccc(COC(Cn2cnc3ccccc32)c2ccc(Cl)cc2Cl)cc1 (stereo not shown) | enzyme activity, inhibitor, ADP detection | – | 0.1 µM | – | activity vs control | 104% |
| O=C(Cc1ccc(OCc2ccccc2)cc1)NC1(C(=O)O)CCN(C(=O)c2ccc(-c3cccc(Cl)c3)cc2)CC1 | enzyme activity, inhibitor | – | 10 µM | – | activity vs control | 105% |

A few entries again:
| Structure (SMILES) | test | system | setting | how to read | quantity | value |
| --- | --- | --- | --- | --- | --- | --- |
| CNC1C[S+]2CC[S+]3CC[S+](C1)[Ru-4]321([N]=C=S)[n]2c3ccc(OC)cc3c3c4c(c5cc(F)c[n+]1c5c32)C(=O)NC4=O (stereo not shown) | KinomeScan | – | 0.1 µM | relative to: untreated | remaining binding | 71% |
| CN1CCN(Cc2ccc(-c3ccc(CO[C@H]4CCC[C@@H]4NC(=O)c4cc(-c5cnn(C)c5)cnc4N)cc3)cc2)CC1 | enzyme activity, inhibitor | – | 0.1 µM | – | inhibition | 7% |
